Measurements pooled from the literature.
Parts stem from different laboratories: compare values within a part only. Positions count from the first letter of the parent shown.

Series 1
Target: Interferon regulatory factor 5, full length, phosphomimetic (IRF5, Homo sapiens, UniProt Q13568-2, residues 1-514, S451D/S453D/S456D/S462D)
Method: protein-binding microarray
Form: double-stranded DNA, one strand shown
Sample: in vitro
Concentration: 940 nM top
Notes: 60-bp whole probe
Added: salmon DNA 0.4 mg/ml
Reference: random background probes
Reading: higher = stronger binding
Shared flanks, not repeated: GCCTAGCAC … GTCTTGATTCGCTTGACGCTGCTG
| Oligonucleotide | fitted relative affinity [z-score] |
| --- | --- |
| GACGATATCAATCTCGAGACGTGCTAG | 0.547 |
| GACGCTATCCTTTTCCTGACGTGCTAG | 0.727 |
| GACGGTTTCGAGTTTCGGGACGTGCTA | 7.18 |
| TTAGGTTTCTGACTGGGTTAGTGCTAG | 2.1 |
| CGGATGATCTCTCTGGGCAAGTGCTAG | -0.222 |
| TTAGGGTCCGGTTTCGGTTAGTGCTAG | 7.49 |
| TCATCTTTTATTTTTTTACTGTGCTAG | 1.86 |
| TCACCTCCCTAATTCTGACTGTGCTAG | 0.933 |
| TTAGGACTGGGTTTCGGATAGTGCTAG | 2.62 |
| CCCCAACTCGCCTTTTTTGTTGTGCTA | 0.883 |
| TTTAGGTCCCTTTTCATGCTGTGCTAG | 0.0751 |
| TTAGGTATCGGGTATAGGTTAGTGCTA | 5.92 |
| GACGGTATCGGTCTCGTGACGTGCTAG | 7.93 |
| TTAGGTTTCAGACTGGATTAGTGCTAG | 2.13 |
| TTAGGTCTCCTACTGCTGTAGTGCTAG | -0.192 |
| TTTTTCTCCTATTTAAGACAGTGCTAG | 1.45 |
| TTTCTTTTTGCACTCTCTACGTGCTAG | 4.45 |
| TCAGTCTTCCCCATCTTACTGTGCTAG | 1.23 |
| TCAGTTTTGCTAAGTCAAACTGTGCTA | 1.07 |

Series 2
Target: CCND3, cyclin fold, Cln2 fusion (human)
Method: yeast growth competition, sequencing
Sample: yeast
Notes: weak parent motif
Reference: not given
Reading: higher = stronger binding
Starting sequence: BRCA2 docking peptide (human); CKKRRALDFLSRL; partner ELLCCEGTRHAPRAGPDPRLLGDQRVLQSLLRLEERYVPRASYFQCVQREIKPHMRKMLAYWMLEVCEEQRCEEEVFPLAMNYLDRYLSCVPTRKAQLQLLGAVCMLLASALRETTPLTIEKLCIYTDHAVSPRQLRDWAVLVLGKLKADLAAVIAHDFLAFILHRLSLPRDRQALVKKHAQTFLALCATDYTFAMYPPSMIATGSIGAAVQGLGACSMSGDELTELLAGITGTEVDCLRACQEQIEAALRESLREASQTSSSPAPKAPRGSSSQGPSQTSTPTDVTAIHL
| Substitution | normalised enrichment score |
| --- | --- |
| R5A | 0.101 |
| R5K F9L | 0.572 |
| R4A | 0.0759 |
| L10A | 0.207 |
| L13A | 0.146 |
| R5A L7A | 0.412 |
| C1A | 0.0505 |
| R12A | 0.226 |
| F9L | 0.0874 |

Series 3
Target: UBE2Z UBC core domain (UniProt Q9H832)
Method: yeast two-hybrid
Sample: yeast
Notes: mostly zero background
Reference: not given
Reading: higher = stronger interaction
B1: TRIM34 RING domain (UniProt Q9BYJ4); chain ILLNVQEEVTCPICLELLTEPLSLDCGHSLCRACITVSNKEAVTSMGGKSSCPVCGISYSFEHLQA
B2: UBE4B RING domain (UniProt O95155); chain KNARAEIDYSDAPDEFRDPLMDTLMTDPVRLPSGTIMDRSIILRHLLNSPTDPFNRQTLTESMLEPVPELKEQIQAWMREKQNSDH
B3: CBLL1 RING domain (UniProt Q75N03); chain GEKDDTPVHFCDKCGLPIKIYGRMIPCKHVFCYDCAILHEKKGDKMCPGCSDPVQRIEQCT
B4: NHLRC1 RING domain (UniProt Q6VVB1); chain MREAEISLLECKVCFEKFGHRQQRRPRNLSCGHVVCLACVAALAHPRTLALECPFCRRACRGCDTSD
B5: MDM2 RING domain (UniProt Q00987); chain TQDKEESVESSLPLNAIEPCVICQGRPKNGCIVHGKTGHLMACFTCAKKLKKRNKPCPVCRQPIQMIVLTYFP
B6: TRIM28 RING domain (UniProt Q13263); chain GAEALELLEHCGVCRERLRPEREPRLLPCLHSACSACLGPAAPAAANSSGDGGAAGDGTVVDCPVCKQQCFSKDIVE
Residues (chain): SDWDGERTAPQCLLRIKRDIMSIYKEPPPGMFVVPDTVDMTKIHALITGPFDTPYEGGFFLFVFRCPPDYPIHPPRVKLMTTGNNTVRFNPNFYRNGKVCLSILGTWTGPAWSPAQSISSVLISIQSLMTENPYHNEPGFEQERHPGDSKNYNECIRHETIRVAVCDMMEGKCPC
| Sequence | lacZ reporter activity |
| --- | --- |
| B1 (TRIM34 RING domain) | 0 |
| B2 (UBE4B RING domain) | 0 |
| B3 (CBLL1 RING domain) | 0 |
| SNNDLASLFECPVCFDYVLPPILQCQSGHLVCSNCRPKLTCCPTCRGPLGSIRNLA (SIAH1 RING domain (UniProt Q8IUQ4)) | 7210 |
| B4 (NHLRC1 RING domain) | 0 |
| B5 (MDM2 RING domain) | 7470 |
| VPADASPDSKCPICLDRFDNVSYLDRCLHKFCFRCVQEWSKNKAECPLCKQPFDSIFHSV (TOPORS RING domain (UniProt Q9NS56)) | 2150 |
| EIKDYKARLTCPCCNMRKKDAVLTKCFHVFCFECVKTRYDTRQRKCPKCNAAFGANDFHR (RNF20 RING domain (UniProt Q5VTR2)) | 0 |
| KITELNPHLMCALCGGYFIDATTIVECLHSFCKTCIVRYLETNKYCPMCDVQVHKTRPLL (PCGF2 RING domain (UniProt P35227)) | 0 |
| B6 (TRIM28 RING domain) | 0 |

Series 4
Target: CREB3, bZIP domain (human)
Method: DHFR protein complementation
Sample: yeast
Notes: single substitutions, most at no-binding floor
Reference: wild-type JUN-FOS pair
Reading: higher = stronger binding
Starting sequence: JUN, bZIP domain (human); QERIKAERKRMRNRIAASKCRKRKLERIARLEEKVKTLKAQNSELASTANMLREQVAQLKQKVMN; partner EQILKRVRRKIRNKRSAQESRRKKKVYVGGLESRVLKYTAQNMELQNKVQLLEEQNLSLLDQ
| Substitution | binding fitness |
| --- | --- |
| A49Q | -1.47 natural log |
| K39S | -1.42 natural log |
| Q41K | -1.54 natural log |
| T37G | -1.41 natural log |
| L38W | -1.53 natural log |
| R30K | -1.36 natural log |
| K39C | -1.51 natural log |
| A49V | -1.42 natural log |
| A46N | -1.44 natural log |
| S47I | -1.48 natural log |
| A49W | -1.53 natural log |
| A29I | -1.56 natural log |
| Q55A | -1.4 natural log |
| V56K | -1.48 natural log |
| V35R | -1.48 natural log |

A few entries again (series 4):
| Substitution | binding fitness |
| --- | --- |
| K39C | -1.51 natural log |
| A49V | -1.42 natural log |
| A46N | -1.44 natural log |
| S47I | -1.48 natural log |
| A49W | -1.53 natural log |
| A29I | -1.56 natural log |
| Q55A | -1.4 natural log |
| V56K | -1.48 natural log |
